Experimental data pooled from the literature.
± marks the error that the study gave.

Structure (SMILES)	test	system	conditions	scale	quantity	result
COc1ccc2cc(-c3ccc(-c4ccc(C)cn4)nc3)oc2c1	TCSPC	water, HEPES 100 mM	pH 7.4, zinc complex	–	radiative decay rate constant	0.06 ns⁻¹
O=c1nc(NO)ccn1[C@@H]1O[C@H](CO)[C@@H](O)[C@H]1O	Western blot, item: CYP2B6	rat, arthritis model, liver	oral, 80 mg/kg twice daily, 5 days	relative to: control group	protein level	> 1.5 fold
Oc1ccc2ccccc2c1/N=N/c1ccc(/N=N/c2ccccc2)cc1	–	rat whole blood	16.0 µg/L, freeze-thaw cycle 1	–	freeze-thaw stability deviation	-0.7%
C[Si](C)(C[C@@H](CN)CC(=O)O)C1CC1	neuromuscular coordination	Wistar rat male	oral, 100 mg/kg, 2 h	–	performance time	180 s
Cc1cc2c(cc1C1(c3ncc(C(=O)O)cn3)CC1)C(C)(C)CCC2(C)C	–	Sprague-Dawley rat, male, plasma	oral, 100 mg/kg, 24 h, sesame oil vehicle	–	LDL level	4 ± 1.2 mg/dL
COc1cc(NC(C)=O)c2c(c1O)-c1c(OC)c(OC)cc3c1C(C2)N(C)CC3 (stereo not drawn)	–	rat kidney homogenate	50 µg/mL, time not given, three freeze-thaw cycles	–	remaining compound	93 ± 2%
CCCC(CCC(=O)O)NC(=O)c1ccc2c(c1)OCO2 (stereo not drawn)	–	female Sprague-Dawley rats, plasma	oral, 50 mg/kg of parent drug	relative to: 50 over 20 mg/kg dose	AUC(0-last) ratio	2.59
CCOC(=O)c1[nH]c(C)c(/C=C/C2=[N+]3C(=C(c4cc(OC)cc(OC)c4)c4c(C)c(I)c(/C=C/c5c(C)[nH]c(C(=O)OCC)c5C)n4[B-]3(F)F)C(C)=C2I)c1C	–	THF	–	–	absorption maximum	685 nm
O=C(O)C1CN(Cc2ccc(-c3noc(-c4ccc(OCC[18F])c(C(F)(F)F)c4)n3)cc2)C1	–	rat, pancreas	intravenous, 5 min	–	tracer uptake	0.755 %ID/g
[2H]C([2H])([2H])NC(=O)c1ccc(N2C(=S)N(c3ccc(C#N)c(C(F)(F)F)c3)C(=O)C2(C)C)cc1F	–	human, male	oral, 160 mg, single dose, fed	–	MRT	195 ± 49.2 h
CC[C@H](C)[C@H](NC(=O)[C@H](N)Cc1ccc(O)cc1)C(=O)N[C@H]1CSSC[C@@H](C(=O)N(C)[C@H](C(N)=O)[C@@H](C)CC)NC(=O)[C@H](CCCNC(=N)N)NC(=O)[C@H](Cc2c[nH]cn2)NC(=O)[C@H](C)NC(=O)CN(C)C(=O)[C@H](Cc2c[nH]c3ccccc23)NC(=O)[C@H](CC(=O)O)NC(=O)[C@H](CCC(N)=O)NC(=O)[C@H](Cc2cn(C)c3ccccc23)NC(=O)[C@H](C(C)C)NC1=O	UPLC-ESI-MS	human plasma	0.36 µg/mL, 24 h, 25 °C, bench-top after SPE	–	recovery	100.3 ± 0.9%
COCC1CN(C2CCN(c3cc(OC)c(Nc4ncc(Br)c(Nc5ccc6c(c5P(C)(C)=O)OCCO6)n4)cc3C)CC2)C1	–	human patients	oral, dose not given	–	grade ≥3 treatment-related vomiting	3.7%
NCC(=O)N1CCC[C@H]1C(=O)N1C[C@H](O)C[C@H]1C(=O)O	–	–	40 °C, MAH complex, ionic strength 0.15, added: Fe(III)	–	log β	21.5
COC(=O)c1ccc(-c2cn(Cc3cc(Cl)ccc3O[11CH3])nn2)cc1	PET, Logan plot, t*=40 min	rhesus monkey, brain Amygdala	dose not given	–	distribution volume	0.552 mL/cm³
Cc1ccc(NCC(=O)N2CCCCC2)cc1S(=O)(=O)N1CCOCC1	–	water	–	–	kinetic solubility	> 250 µM
CSCc1ccccn1.F[P-](F)(F)(F)(F)F.F[P-](F)(F)(F)(F)F.[Ru+2].c1ccc(-c2ccccn2)nc1.c1ccc(-c2ccnc3c2ccc2c(-c4ccccc4)ccnc23)cc1	UV-vis spectroscopy	deaerated acetonitrile	298 K, added: light 521 nm	–	photosubstitution quantum yield	0.111
NC[C@@H](C(=O)Nc1ccc(-c2cn[nH]c2)cc1)c1ccccc1	OECD 405 eye irritation	New Zealand White rabbit, eye	topical, 0.1%, 32 h (day 2)	direction not given	total eye irritation score	0

Structure (SMILES)	test	system	conditions	scale	quantity	result
O=C(Nc1ccc(C(F)(F)F)cc1Cl)c1cc(Cl)ccc1O	–	SCID mice CWR22Rv1 xenograft	intraperitoneal, 25 mg/kg	–	body weight	no effect
COc1cc(-c2nc3ccccc3s2)cc(CN(C)Cc2ccccn2)c1O	–	methanol-water	50 µM, 0.1 M NaCl	–	pKa1	1.94
N=C(N)NCCC[C@@H]1NC(=O)[C@H](Cc2c[nH]c3ccccc23)NC(=O)[C@@H](CC2CCCCC2)NC(=O)[C@@H]2CCCN2C(=O)[C@@H](NC(=O)CCc2ccccc2)CCCNC1=O	two-compartment model	C57BL/6J mice, plasma	subcutaneous, 1 mg/kg	–	beta rate constant	0.03 min⁻¹
CCn1c(=O)n(CCO)c(=O)c2c1nc(/C=C/c1ccc(OC)c(OC)c1)n2C	–	healthy humans, plasma	oral, 40 mg, added: rifampin 600 mg/day	relative to: without rifampin	change in AUClast	-68%
CCCC[C@@H]1NC(=O)[C@@H](NC(=O)[C@H](CCC(=O)O)NC(=O)CNC(=O)CN2CCN(CC(=O)O)CCN(CC(=O)O)CCN(CC(=O)O)CC2)CCCCNC(=O)C[C@@H](C(N)=O)NC(=O)[C@H](C(C)C)NC(=O)[C@@H]2CCCN2C(=O)[C@H](CCCNC(=N)N)NC(=O)CNC(=O)[C@H](Cc2c[nH]c3ccccc23)NC(=O)[C@H](CCCNC(=N)N)NC(=O)[C@@H](Cc2ccccc2)NC(=O)[C@H](Cc2c[nH]cn2)NC(=O)[C@H](CCC(=O)O)NC1=O [gallium-67 labelled]	–	C57 mice with B16/F1 melanoma	intravenous, 0.037 MBq/mouse, 0.5 h	relative to: tumour over liver	tumour to liver ratio	12.4
NC1CC=C(c2cc3c(Nc4cc5ncsc5cc4F)ncnc3s2)CC1 (stereo not drawn)	–	human liver microsomes	1 µM	–	intrinsic clearance	< 12 mL/min/g protein
COCCOCCOCCOCCOCCOCCOCCOCCNC(=O)CCc1ccc(N(c2ccc(CCC(=O)NCCOCCOCCOCCOCCOCCOCCOCCOC)cc2)c2ccc(-c3c4c(c(-c5ccc(N(c6ccc(CCC(=O)NCCOCCOCCOCCOCCOCCOCCOCCOC)cc6)c6ccc(CCC(=O)NCCOCCOCCOCCOCCOCCOCCOCCOC)cc6)cc5)c5nsnc35)N=S=N4)cc2)cc1	–	KM mice, female, faeces	intravenous, dose not given, 24 h	relative to: dose	faecal excretion	~19%
CC(C)(F)CC(NC(c1ccc(-c2ccc(S(C)(=O)=O)cc2)cc1)C(F)(F)F)C(=O)NCC#CBr (stereo not drawn)	LC-MS UV trace	aqueous buffer	23 h, pH 7.5, 37 °C, added: GSH 5 mM	–	GSH adduct formation	47%
Cc1noc(C)c1Cn1cc(N2C(=O)CN(Cc3cccc(O[C@@H]4O[C@H](C(=O)O)[C@@H](O)[C@H](O)[C@H]4O)c3)C2=O)cn1	–	rat Sprague-Dawley male, plasma	oral, 100 mg/kg of parent drug	–	AUC(0-last)	44700 ng·h/mL
Cn1c(=O)oc2ccc(-c3ccc(CC(C#N)NC(=O)C4CNCCCO4)c(F)c3)cc21 (stereo not drawn)	item: blood bilirubin increased	human	15 mg single dose, fasted	–	subjects with TEAE	0%
C=C(c1cc(F)c(C(=O)O)c(F)c1)c1cc2c(cc1C)C(C)(C)CCC2(C)C	–	Sprague-Dawley rat, male, plasma	oral, 100 mg/kg, 3 h, sesame oil vehicle	–	LDL level	13 ± 3.6 mg/dL
CCCC[C@H](NC(=O)CNC(=O)CNC(=O)CN1CCN(CC(=O)O)CCN(CC(=O)O)CC1)C(=O)N[C@H]1CC(=O)NCCCC[C@@H](C(N)=O)NC(=O)[C@H](Cc2c[nH]c3ccccc23)NC(=O)[C@H](CCCNC(=N)N)NC(=O)[C@@H](Cc2ccccc2)NC(=O)[C@H](Cc2c[nH]cn2)NC1=O [gallium-67 labelled]	–	female C57 mice, B16/F1 melanoma, pancreas	intravenous, 0.037 MBq, 0.5 h	–	tissue uptake	1.03 ± 0.16 %ID/g
CCC(=O)N[C@@H](C)C(=O)OCC(=O)N[C@@H](C)C(=O)O	–	water	pH 6, 50 °C	–	depolymerization half-life	83.2 h
CN1CCC[C@]1(C)/C=C/S(=O)(=O)NC(=O)Nc1c2c(cc3c1CCC3)CCC2	–	human	oral, up to 400 mg single dose	–	tolerability	not toxic
C[C@]12CC[C@@H]3c4ccc(OCC(=O)N[C@@H](CCCCNC(=O)CN5CCN(CC(=O)[O-])CCN(CC(=O)[O-])CCN(CC(=O)[O-])CC5)C(=O)O)cc4CC[C@H]3[C@@H]1CCC2=O.[68Ga+3]	–	female Balb/c mice	45 min	–	liver uptake	2.9 ± 0.58 %IA/g
COc1ccc(-c2csc(N/N=C(\C)c3cc(O)cc(O)c3)n2)cc1	LC-MS/MS	rat plasma	3.75 ng/mL, 45 days, -20 °C	–	long-term stability change	-0.27%
